Experimental data pooled from the literature.
Every numbered part comes from another study and shows a few of its results, in no order.

Series 1
Target: RING finger protein unkempt homolog, zinc fingers 1-6, SBP tag (UNK, Homo sapiens, UniProt Q9C0B0, residues 30-357)
Chain of UniProt Q9C0B0 (30-357, looked up): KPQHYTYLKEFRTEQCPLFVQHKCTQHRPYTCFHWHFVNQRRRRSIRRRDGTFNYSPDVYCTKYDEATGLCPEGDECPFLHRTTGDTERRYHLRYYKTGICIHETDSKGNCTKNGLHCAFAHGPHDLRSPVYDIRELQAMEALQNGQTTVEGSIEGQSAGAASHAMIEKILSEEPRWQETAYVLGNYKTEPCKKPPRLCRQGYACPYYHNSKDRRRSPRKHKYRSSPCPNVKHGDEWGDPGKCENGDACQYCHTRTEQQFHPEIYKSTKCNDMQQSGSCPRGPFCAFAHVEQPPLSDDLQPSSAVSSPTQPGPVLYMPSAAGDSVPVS
Technique: RNA Bind-n-Seq
Molecule type: RNA
Medium: in vitro
Concentration: 100 nM
Setting: RNA with constant flanks, vertebrate orthologous sites, ends assumed
Reference: input RNA pool
Reading: higher = stronger binding
Constant ends, left off below: GGGAGUUCUACAGUCCGACGAUC … CAACAGAGGAUUGAGCAUCA
For `UCCUCAACUUGUUCUAGUUGGUGAUCCUUCAAAGUUGGGUCAGGUAUUAGUGCUAGGUACUAGCAAUGUUCAUUUCUCUGUUGCCAUUGAUCAGAGAGACAGACGUUAAAAACAGUAAUA`, the bound/input enrichment was 0.692 ratio.
The bound/input enrichment of `CCCAGAUUUUAGAUGUGAUAUGUAGGCUUUCAUUCCAGCUUGUUUUUGUCUUUUCUUGUUUAGAUACCAAUCUUUUAAAUUCUUGCAUUUUAGUAAGAAAGCUACCUUUUUAUGGAUGUU` is reported as 1.45 ratio.
With `UUGGGGUGUAUCUGUGGGCGCUGCUGGCCACGUAGCGUCGUUUGAUUCAUGACCUUGACAUAAUAGAUAGGCUUGUGGUUUUUUAAUUUAAAGAUAUUAAGACUUUAAUUCACUAAAAUU` the bound/input enrichment was 0.531 ratio.
`GAGCUAAAGGAGUUAGCACCUUUAUUUUUGUAUCAAAGACAAAGGUUAUUUUGAAAUUAUUAGGAUUUUUACACAACUGUGAAAUCUGUUGCUUUUGUAAACAAGUUGUUUGAUCUUAGG` has a bound/input enrichment of 0.589 ratio.
The bound/input enrichment of `UUCAGGCACAACUGACUGGUUCACAGCAUUCCUUACACAGUUAUCUAUCAAAUGCAAGUGUGGUCAAUUUUCAGGAAACCAGCAGGCAGUCAUCUUUAUCCUGUAGCCCAGUUGGAGAUU` is reported as 0.543 ratio.
`UUGGGAACAGCUCUCCAAAUAGGAAUAGUAGUAAAAAAAAUAAGCAAAAUGAUAUUUGUGUAGAAAAAACAGAAGUUAAAUCAUGUAAAGUAAAUGCUGCCAACCUUCCGGGUCCUAAAG` gave a bound/input enrichment of 1.35 ratio.
`AAACUUGUAUUGGGGCACAUAGUCAACAUGGAAGUAGACCCGCCCCGCUGAUUUGAAAUGUAGAUGUUAAUUAUGUACUGGGGACAGGUUUCUGUCGCUUUACAUCGCUUCCUAGUUUAC` has a bound/input enrichment of 0.527 ratio.
`CAUUGUACCCUCCUGUAUAAUAAACAAUCUUAGACAUUUAUCAACUGUUGAUACAAAUGUUAGUCCCUAACCACUUUUUAUAUAUGUUUUAAAUUUUUGAAAUUCAAGUGUACCUGCCAU` has a bound/input enrichment of 1.53 ratio.
With `UAUUUUCUUAUUUUAGGUAUCAUUGCCCAGUGCCUAAGAUCUUUUAUGUUCAGCUCACUGUAGGAAAUAAUGAAUUUUUUGGGGAAGGAAAGACUCGACAAGCUGCUAGACACAAUGCUG` the bound/input enrichment was 1.26 ratio.
With `AUGCCAUCCUCCUGGUGUGUGACUGCCAGUGAAGCAUCCACCAGCGCUGCAAGGGGUCCAGAGUAUUUUCUGCUGCCUCAGUCCCCAAUGCCUUCCAGCAGAAGUGGCGGCAGAUGGUUG` the bound/input enrichment was 0.219 ratio.
`UCAGUCCCCUGGGCCGGGACAGAUUUUUUUUAACGUCUUGAAACUUAAACUCUGUGCUUGUAGGAGACCGUAACCUUUUUGUCUUUAUUAUUUCUCUAAAAACAAACAACCUCCACCUCC` gave a bound/input enrichment of 0.712 ratio.

Series 2
Target: Ras GTPase-activating protein-binding protein 1, RRM domain (G3BP1, Homo sapiens, UniProt Q13283)
Chain of UniProt Q13283 (whole entry, looked up): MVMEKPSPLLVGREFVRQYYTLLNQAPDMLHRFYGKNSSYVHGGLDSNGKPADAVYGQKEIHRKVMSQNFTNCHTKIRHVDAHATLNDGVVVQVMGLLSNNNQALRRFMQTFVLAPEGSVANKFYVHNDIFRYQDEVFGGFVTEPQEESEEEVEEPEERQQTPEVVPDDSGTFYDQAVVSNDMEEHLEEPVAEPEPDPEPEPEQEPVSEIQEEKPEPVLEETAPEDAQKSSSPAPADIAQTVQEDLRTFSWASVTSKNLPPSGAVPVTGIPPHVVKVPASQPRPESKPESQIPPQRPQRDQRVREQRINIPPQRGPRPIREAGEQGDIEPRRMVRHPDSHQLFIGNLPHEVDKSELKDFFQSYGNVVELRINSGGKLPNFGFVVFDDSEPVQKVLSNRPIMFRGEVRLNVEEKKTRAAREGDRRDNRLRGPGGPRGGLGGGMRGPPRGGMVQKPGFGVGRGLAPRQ
Technique: RNA Bind-n-Seq
Molecule type: RNA
Medium: in vitro
Concentration: 1 µM
Setting: whole 134-nt RNA, ends assumed
Added: 150 mM KCl
Reference: input library
Reading: higher = stronger binding
Constant ends, left off below: GGGAGUUCUACAGUCCGACGAUC … UGGAAUUCUCGGGUGUCAAGG
For `UGAAUCCUUCCUUGAUGAUGAAGAGGUAUGUCAACAAGGGUAAUAAUUUGUUUUCUUCUGAUUACUCUCAUAUUUUUAUUAUCUUUUAUU`, the log2 enrichment was -0.25.
For `UUCCUCAAGUCCUGUGCUACACAUCGUAUGUACCGAAUCGGAGGAGGUGGAAAGUAUUAUGUUACGCCGUUCGGAUCUGCACUUCCAGCA`, the log2 enrichment was -0.338.
`UUUGAAGAUCAGCUUCAGCAAUGGUUGUCUGAAGACUCAGGAGCAUUUACGGAUUUAACUUCCCUUCCCCUCUAUCUUCCUCAGACUCUA` gave a log2 enrichment of -0.123.
`UGGCCCUGGUGGCAUGCGGGGAGGAAGAGGUGUCCUCAUGGAUCGUGGUGGUCCCGGUGGAAUGUUCAGAGGUGGCCGUGGUGGAGACAG` gave a log2 enrichment of 0.712.
`AGAUGAACAAGAGAACUGGGCAACCCAUGAUCCACAUCUACCUGGACAAGGAAACAGGAAAGCCCAAAGGCGAUGCCACAGUGUCCUAUG` has a log2 enrichment of -0.114.
For `CAAGUCCUGUGCUACACAUCGUAUGUACCGAAUCGGCCCGGGGCCCGGGGCCCGGAAAGUAUUAUGUUACGCCGUUCGGAUCUGCACUUC`, the log2 enrichment was -1.45.
The log2 enrichment of `UGCUGUGUCACCGGGAACGCAAAGGCUGGGAAGAAGGCCCUUCUCAAAAUGGACUGGUGUUGCAGGGUGAGAAGCUGCCCCCUGACUUCA` is reported as -0.158.
With `CAAGUCCUGUGCUACACAUCGUAUGUACCGAAUCGGGUGGGAAAAAAAGGGAGGGAAAGUAUUAUGUUACGCCGUUCGGAUCUGCACUUC` the log2 enrichment was 0.616.
The log2 enrichment of `ACCAUGCAGGUGGGCAUCUUUGUGAAGUGGGGCAAGGGGGGGAUAGGGAGGGGGGUAACACUUUGGGAACAGGUGGUCCCAGGUCGUUUC` is reported as -0.377.
The log2 enrichment of `GUCCUGUGCUACACAUCGUAUGUACCGAAUCGGUUUUUUGGGUUUUUUGGGUUUUUUGGAAAGUAUUAUGUUACGCCGUUCGGAUCUGCA` is reported as -0.156.
For `AGUCCUGUGCUACACAUCGUAUGUACCGAAUCGGGGAGGGGUGGGGUUUUUUUGGGGAAAGUAUUAUGUUACGCCGUUCGGAUCUGCACU`, the log2 enrichment was 0.886.
`GCAGGAAGUAAUAACAAAUGGAAAUGCUUCGGAUAGUGGCAGGGGUGGGGGUUGCUAAGGAAAGGGUGGGAUGGGAGUGGGUAAAGAGUU` gave a log2 enrichment of 0.96.
`CUGUGCUACACAUCGUAUGUACCGAAUCGGGGUUUUUUGGGUUUUUUGGGGUUUUUUGGGGAAAGUAUUAUGUUACGCCGUUCGGAUCUG` gave a log2 enrichment of -0.189.
`ACCAUGCAGGUGGGCAUCUUUGGGAAGUGGGGCAAGGGGGGGAUAGGGAGGGGGGUAUCACUUUGGGAACAGGUGGUCCCAGGUCGUUUC` has a log2 enrichment of 0.827.

Series 3
Target: Histone acetyltransferase KAT6A, winged helix 1, GST fusion (KAT6A, Homo sapiens, UniProt Q92794, residues 1-85)
Technique: protein binding microarray
Molecule type: double-stranded DNA, one strand shown
Medium: in vitro
Concentration: not given
Setting: 8-mer, flanks averaged, mean of 2 arrays, mostly near background
Reference: not given
Reading: higher = stronger binding
Residues (chain): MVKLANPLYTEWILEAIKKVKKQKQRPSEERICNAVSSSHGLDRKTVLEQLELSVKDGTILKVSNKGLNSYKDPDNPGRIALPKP
For `GAGCTAGA`, the E-score was -0.039.
For `AGGGGGGA`, the E-score was -0.263.
The E-score of `TAGATCCA` is reported as -0.117.
The E-score of `CAATGAAA` is reported as -0.288.
`AAGCCCTG` gave an E-score of -0.121.
For `ATGTACTG`, the E-score was -0.164.
The E-score of `ACGATTTA` is reported as -0.177.
With `ATGAACTA` the E-score was -0.136.
`CGAAAACA` gave an E-score of 0.0432.
The E-score of `GGGGGACA` is reported as -0.0329.
The E-score of `AGGCGTAA` is reported as 0.0161.
`AGTCAGAG` gave an E-score of -0.0684.
`GGTGGCGA` has an E-score of 0.102.
`TCCGACAA` gave an E-score of 0.0834.
`GGGTGCTA` gave an E-score of -0.0419.
`GGATAGAA` gave an E-score of -0.0174.
`ATTCATAC` has an E-score of 0.016.
`ATCCGCTC` gave an E-score of 0.209.
`GCAGCCCC` has an E-score of -0.00698.
The E-score of `CAGATCCA` is reported as -0.226.
With `ATGCGGGA` the E-score was 0.223.
`GATAGCCA` gave an E-score of -0.0843.
`CGCCTACA` has an E-score of 0.119.
The E-score of `AATGGTGA` is reported as -0.153.
`ACACCTGT` gave an E-score of -0.071.

Series 4
Target: Centromere-binding protein 1, full length, N-terminal tag (CBF1, Saccharomyces cerevisiae, UniProt P17106, residues 1-351)
Chain of UniProt P17106 (whole entry, looked up): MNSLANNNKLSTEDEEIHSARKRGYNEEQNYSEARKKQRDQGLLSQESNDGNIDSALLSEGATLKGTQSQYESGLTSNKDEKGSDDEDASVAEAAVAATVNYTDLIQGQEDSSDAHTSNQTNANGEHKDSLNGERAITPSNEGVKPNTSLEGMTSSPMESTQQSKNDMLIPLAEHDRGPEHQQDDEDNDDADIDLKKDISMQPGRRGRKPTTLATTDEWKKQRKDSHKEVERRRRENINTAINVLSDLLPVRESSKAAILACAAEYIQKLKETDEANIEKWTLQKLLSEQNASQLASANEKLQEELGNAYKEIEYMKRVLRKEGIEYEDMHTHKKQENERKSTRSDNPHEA
Technique: protein-binding microarray
Molecule type: double-stranded DNA, one strand shown
Medium: in vitro
Concentration: 0.8 µM
Setting: whole 60-bp probe, no competitor
Reading: higher = stronger binding
Constant ends, left off below: … GTCTTGATTCGCTTGACGCTGCTG
For `CTACCGGCTTTCTCCCACGAGGTTTCACTGCTGTTC`, the fluorescence intensity was 550 a.u.
`CTAAAATACTGATACCACATGAACTATTGATCATTC` gave a fluorescence intensity of 567 a.u.
For `GAAGCTCTAGCTGATCAGCTGTTTTTGGTTTCTTAG`, the fluorescence intensity was 835 a.u.
`GAACAATGCTGACAGCTGAGTATTGCAACACAATAG` gave a fluorescence intensity of 485 a.u.
`GAACCGTTTTCGTCGTGCATCAGGAACGATCTTTAG` gave a fluorescence intensity of 543 a.u.
The fluorescence intensity of `CTAGGATACTTCCGTCATCAGAAAGTAATTCACTTC` is reported as 507 a.u.
`GAATGTAACAGTAATCACGAATAGCAGCAGATTTAG` has a fluorescence intensity of 542 a.u.
For `CTAAAATTTTATGTTTGCGTGATTGTTGGTGATTTC`, the fluorescence intensity was 567 a.u.
`CTAAGACCCTCCTATCACGCTCATAATATCATGTTC` gave a fluorescence intensity of 610 a.u.
For `GAACGTTTTATTTCACTCACCTGTTGTCGAAAATAG`, the fluorescence intensity was 770 a.u.
`GAATTTATCTACTACCACGAGTTTATTACGGCGTAG` gave a fluorescence intensity of 554 a.u.
`CTATGCGGGCGTGGTGCTGATGTTCTTCGAGACTTC` gave a fluorescence intensity of 516 a.u.
`CTAACACATTAACCACACGTTCAGATATGTATGTTC` gave a fluorescence intensity of 555 a.u.
With `CTATTTTACGCTACGCACGTCATCGATATATACTTC` the fluorescence intensity was 524 a.u.
`GAATCAAGGAAAACTCGTGACATACAAATGCAATAG` has a fluorescence intensity of 2480 a.u.
The fluorescence intensity of `TGTACGAAGCTATGTAATGTCACTATAGTAGTTAGG` is reported as 547 a.u.
The fluorescence intensity of `GAATCTTGTTAAGATTACATCAGCACTAACAAATAG` is reported as 516 a.u.
The fluorescence intensity of `GAAAATAATATATCTCACACCATAATAATGTCATAG` is reported as 531 a.u.
With `CTACACTCACAATTGGACGTGCCTCAATTATTTTTC` the fluorescence intensity was 522 a.u.
`TGTACGAAGCTATTATACGTGACTATAGTAGTTAGG` gave a fluorescence intensity of 673 a.u.
`CTATAGTTATACCCCCACGTTTGCTGGGTCTCATTC` gave a fluorescence intensity of 524 a.u.
For `GAATTGTGCTACTGTCACGATCCGCAAGAGATATAG`, the fluorescence intensity was 592 a.u.
For `CCTAACTACTATATTTGCGTGCTATAGCTTCGTACA`, the fluorescence intensity was 516 a.u.
`CTAGTCAGCGATGGTGACGTAAACGACTTTTTGTTC` gave a fluorescence intensity of 484 a.u.
For `TGTACGAAGCTATTTCACGCAATTATAGTAGTTAGG`, the fluorescence intensity was 544 a.u.

Repeated from above (series 1):
With `UAUUUUCUUAUUUUAGGUAUCAUUGCCCAGUGCCUAAGAUCUUUUAUGUUCAGCUCACUGUAGGAAAUAAUGAAUUUUUUGGGGAAGGAAAGACUCGACAAGCUGCUAGACACAAUGCUG` the bound/input enrichment was 1.26 ratio.
With `AUGCCAUCCUCCUGGUGUGUGACUGCCAGUGAAGCAUCCACCAGCGCUGCAAGGGGUCCAGAGUAUUUUCUGCUGCCUCAGUCCCCAAUGCCUUCCAGCAGAAGUGGCGGCAGAUGGUUG` the bound/input enrichment was 0.219 ratio.
With `UUGGGGUGUAUCUGUGGGCGCUGCUGGCCACGUAGCGUCGUUUGAUUCAUGACCUUGACAUAAUAGAUAGGCUUGUGGUUUUUUAAUUUAAAGAUAUUAAGACUUUAAUUCACUAAAAUU` the bound/input enrichment was 0.531 ratio.
For `UCCUCAACUUGUUCUAGUUGGUGAUCCUUCAAAGUUGGGUCAGGUAUUAGUGCUAGGUACUAGCAAUGUUCAUUUCUCUGUUGCCAUUGAUCAGAGAGACAGACGUUAAAAACAGUAAUA`, the bound/input enrichment was 0.692 ratio.
`UCAGUCCCCUGGGCCGGGACAGAUUUUUUUUAACGUCUUGAAACUUAAACUCUGUGCUUGUAGGAGACCGUAACCUUUUUGUCUUUAUUAUUUCUCUAAAAACAAACAACCUCCACCUCC` gave a bound/input enrichment of 0.712 ratio.
